Measurements of several laboratories.
A part holds a random share of what one study measured.
Chain of UniProt P10721 (whole entry, unmodified, looked up): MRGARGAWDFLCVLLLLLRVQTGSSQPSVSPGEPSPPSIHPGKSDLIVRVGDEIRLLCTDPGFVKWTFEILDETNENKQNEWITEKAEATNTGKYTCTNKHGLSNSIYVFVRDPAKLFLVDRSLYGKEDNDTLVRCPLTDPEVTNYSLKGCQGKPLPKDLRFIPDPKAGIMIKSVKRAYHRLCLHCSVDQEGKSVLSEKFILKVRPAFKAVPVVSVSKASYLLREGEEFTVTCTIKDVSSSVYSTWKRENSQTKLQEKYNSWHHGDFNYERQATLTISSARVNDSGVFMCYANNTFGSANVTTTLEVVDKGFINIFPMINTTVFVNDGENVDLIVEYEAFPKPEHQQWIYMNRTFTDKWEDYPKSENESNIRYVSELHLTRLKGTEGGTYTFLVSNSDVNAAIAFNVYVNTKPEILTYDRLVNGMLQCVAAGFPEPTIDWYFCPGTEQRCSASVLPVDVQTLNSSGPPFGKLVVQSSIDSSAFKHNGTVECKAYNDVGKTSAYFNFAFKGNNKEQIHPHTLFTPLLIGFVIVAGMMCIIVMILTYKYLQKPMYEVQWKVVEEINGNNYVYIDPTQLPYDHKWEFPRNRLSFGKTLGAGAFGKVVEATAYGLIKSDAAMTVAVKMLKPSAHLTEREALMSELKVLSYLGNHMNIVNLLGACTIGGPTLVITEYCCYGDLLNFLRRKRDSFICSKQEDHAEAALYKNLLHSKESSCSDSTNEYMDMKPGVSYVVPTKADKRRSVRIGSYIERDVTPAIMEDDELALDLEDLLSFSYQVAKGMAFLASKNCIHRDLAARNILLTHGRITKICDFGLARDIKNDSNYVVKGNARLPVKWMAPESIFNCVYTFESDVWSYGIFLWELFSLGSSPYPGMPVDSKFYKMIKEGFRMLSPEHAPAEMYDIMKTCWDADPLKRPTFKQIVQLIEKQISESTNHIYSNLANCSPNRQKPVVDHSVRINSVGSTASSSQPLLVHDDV
Chain of UniProt P0C264 (whole entry, looked up): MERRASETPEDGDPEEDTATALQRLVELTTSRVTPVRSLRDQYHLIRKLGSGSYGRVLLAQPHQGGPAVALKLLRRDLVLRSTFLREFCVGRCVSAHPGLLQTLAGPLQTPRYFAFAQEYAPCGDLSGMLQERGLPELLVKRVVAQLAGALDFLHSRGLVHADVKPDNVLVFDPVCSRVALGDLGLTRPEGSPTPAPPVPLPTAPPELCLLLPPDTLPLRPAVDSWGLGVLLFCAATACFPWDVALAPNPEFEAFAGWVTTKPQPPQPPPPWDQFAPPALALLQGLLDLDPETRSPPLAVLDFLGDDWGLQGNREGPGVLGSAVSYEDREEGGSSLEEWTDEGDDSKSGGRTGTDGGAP
Chain of UniProt O15530 (whole entry, looked up): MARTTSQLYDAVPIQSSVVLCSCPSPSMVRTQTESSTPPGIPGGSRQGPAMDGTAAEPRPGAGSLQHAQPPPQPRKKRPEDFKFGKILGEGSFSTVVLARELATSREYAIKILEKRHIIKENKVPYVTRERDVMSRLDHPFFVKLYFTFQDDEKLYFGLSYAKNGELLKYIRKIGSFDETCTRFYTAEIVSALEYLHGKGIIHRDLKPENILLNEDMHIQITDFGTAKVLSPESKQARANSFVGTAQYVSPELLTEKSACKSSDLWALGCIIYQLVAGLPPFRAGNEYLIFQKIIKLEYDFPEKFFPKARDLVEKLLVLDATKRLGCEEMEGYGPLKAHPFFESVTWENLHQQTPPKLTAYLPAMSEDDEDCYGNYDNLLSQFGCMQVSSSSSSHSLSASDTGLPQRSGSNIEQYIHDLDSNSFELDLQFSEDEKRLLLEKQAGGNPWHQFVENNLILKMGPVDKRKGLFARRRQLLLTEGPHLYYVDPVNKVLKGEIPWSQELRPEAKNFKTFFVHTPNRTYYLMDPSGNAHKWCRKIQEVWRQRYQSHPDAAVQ
Chain of UniProt O75914 (whole entry, looked up): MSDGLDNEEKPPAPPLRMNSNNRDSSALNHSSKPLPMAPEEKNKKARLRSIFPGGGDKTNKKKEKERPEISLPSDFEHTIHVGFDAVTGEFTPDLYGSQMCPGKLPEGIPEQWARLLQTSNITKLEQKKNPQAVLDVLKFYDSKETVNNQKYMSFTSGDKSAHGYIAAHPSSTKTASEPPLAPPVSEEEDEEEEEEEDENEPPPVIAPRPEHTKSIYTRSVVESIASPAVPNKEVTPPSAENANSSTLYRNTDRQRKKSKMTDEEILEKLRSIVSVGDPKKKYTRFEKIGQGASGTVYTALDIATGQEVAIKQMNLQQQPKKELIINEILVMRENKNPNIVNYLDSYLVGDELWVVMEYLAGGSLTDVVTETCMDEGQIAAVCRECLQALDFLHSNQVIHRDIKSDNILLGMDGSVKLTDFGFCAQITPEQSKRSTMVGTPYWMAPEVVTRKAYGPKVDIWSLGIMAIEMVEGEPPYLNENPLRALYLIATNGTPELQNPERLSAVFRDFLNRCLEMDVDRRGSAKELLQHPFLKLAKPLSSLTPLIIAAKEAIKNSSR
Chain of UniProt Q9BYT3 (whole entry, looked up): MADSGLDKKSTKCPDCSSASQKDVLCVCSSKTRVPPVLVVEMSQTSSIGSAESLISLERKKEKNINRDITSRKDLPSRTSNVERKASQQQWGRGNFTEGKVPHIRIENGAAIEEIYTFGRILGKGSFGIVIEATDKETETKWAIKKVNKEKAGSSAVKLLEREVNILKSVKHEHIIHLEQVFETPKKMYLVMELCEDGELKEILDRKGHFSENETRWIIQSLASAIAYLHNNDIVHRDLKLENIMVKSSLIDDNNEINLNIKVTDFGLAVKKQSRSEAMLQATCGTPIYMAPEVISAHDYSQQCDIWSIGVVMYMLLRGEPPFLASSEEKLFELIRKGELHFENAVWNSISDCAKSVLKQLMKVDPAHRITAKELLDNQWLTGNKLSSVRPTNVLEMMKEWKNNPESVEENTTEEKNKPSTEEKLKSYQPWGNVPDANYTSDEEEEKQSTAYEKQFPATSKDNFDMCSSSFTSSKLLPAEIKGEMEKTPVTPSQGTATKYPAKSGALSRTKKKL

Sample 1
SMILES: O=C(NCc1ncc(C(F)(F)F)cc1Cl)c1ccc2c(c1)C1(CCS(=O)(=O)CC1)[C@@H](C1CC1)N2S(=O)(=O)c1ccc(F)cc1
Observed: cell-free assay
Method: competition with immobilised ligand
Tested at: 1 µM
Endpoint: remaining binding
target = cAMP-dependent protein kinase catalytic subunit beta (PRKACB, Homo sapiens, UniProt P22694); value = 85%
target = Mast/stem cell growth factor receptor Kit (KIT, Homo sapiens, UniProt P10721, L576P); value = 76%
target = Proto-oncogene tyrosine-protein kinase receptor Ret (RET, Homo sapiens, UniProt P07949, V804L); value = 100%
target = Mast/stem cell growth factor receptor Kit (KIT, Homo sapiens, UniProt P10721, T670I/V559D); value = 87%
target = Serine/threonine-protein kinase PAK 3 (PAK3, Homo sapiens, UniProt O75914); value = 89%
target = Mast/stem cell growth factor receptor Kit, autoinhibited (KIT, Homo sapiens, UniProt P10721); value = 82%
target = 3-phosphoinositide-dependent protein kinase 1 (PDPK1, Homo sapiens, UniProt O15530); value = 92%
target = Uncharacterized serine/threonine-protein kinase SBK3 (SBK3, Homo sapiens, UniProt P0C264); value = 100%
target = Serine/threonine-protein kinase 33 (STK33, Homo sapiens, UniProt Q9BYT3); value = 86%

Sample 2
Structure (SMILES): CC(C)n1cnc(-c2ccc(F)cc2)c1-c1ncc(C(=O)Nc2ccc(N3CCN(C)CC3)cc2)[nH]1
Method: phase 2a clinical trial
Host: patients with idiopathic pulmonary fibrosis
Endpoint: patients with treatment-emergent adverse events
refers to = benign prostatic hyperplasia; dose = dose not given; setting = Grade 3, maximum intensity, all drug arms total; value = 0%
refers to = electrocardiogram T wave abnormal; dose = dose not given; setting = Grade 5, all drug arms total; value = 0%
refers to = electrocardiogram T wave abnormal; dose = dose not given; setting = Grade 4, all drug arms total; value = 0%
refers to = metabolism and nutrition disorders (SOC); dose = 30 mg once daily; setting = Grade 4; value = 0%
refers to = idiopathic pulmonary fibrosis; dose = dose not given; setting = Grade 4, all drug arms; value = 0%
refers to = drug-induced liver injury; dose = 30 mg once daily; setting = Grade 5; value = 0%
refers to = electrocardiogram T wave abnormal; dose = 30 mg once daily; setting = Grade 2; value = 0%
refers to = electrocardiogram high voltage; dose = dose not given; setting = Grade 2, all drug arms total; value = 0%
refers to = electrocardiogram QT prolonged; dose = 30 mg once daily; setting = Grade 1; value = 0%
refers to = protein urine present; dose = dose not given; setting = Grade 3, all drug arms total; value = 0%

Sample 3
Structure (SMILES): CC(C)(C)c1cnc(CSc2cnc(NC(=O)C3CCN(CCCCCSc4cccc5c4CN(C4CCC(=O)NC4=O)C5=O)CC3)s2)o1 (stereo not drawn)
Target: Cyclin-dependent kinase 9 (CDK9, Homo sapiens, UniProt P50750)
Chain of UniProt P50750 (whole entry, looked up): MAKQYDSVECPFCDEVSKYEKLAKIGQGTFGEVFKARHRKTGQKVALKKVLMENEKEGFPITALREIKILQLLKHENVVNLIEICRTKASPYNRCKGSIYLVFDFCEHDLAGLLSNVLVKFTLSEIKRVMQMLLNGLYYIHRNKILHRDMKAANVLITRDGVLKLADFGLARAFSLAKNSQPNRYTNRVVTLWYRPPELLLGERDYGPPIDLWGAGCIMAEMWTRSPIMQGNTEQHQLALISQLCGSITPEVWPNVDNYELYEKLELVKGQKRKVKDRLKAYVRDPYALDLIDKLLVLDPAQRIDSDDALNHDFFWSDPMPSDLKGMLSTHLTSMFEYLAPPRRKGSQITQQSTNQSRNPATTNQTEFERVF
Cell line: HuT78
Time: 10 h
Endpoint: remaining activity
tested at = 0.005 µM; value = 53.9%
tested at = 0.1 µM; value = 23.3%
tested at = 0.025 µM; value = 38%
tested at = 0.25 µM; value = 36.8%
tested at = 0.0005 µM; value = 90.6%

Sample 4
Target: Serine/threonine-protein kinase MARK1 (MARK1, Homo sapiens, UniProt Q9P0L2)
Chain of UniProt Q9P0L2 (whole entry, looked up): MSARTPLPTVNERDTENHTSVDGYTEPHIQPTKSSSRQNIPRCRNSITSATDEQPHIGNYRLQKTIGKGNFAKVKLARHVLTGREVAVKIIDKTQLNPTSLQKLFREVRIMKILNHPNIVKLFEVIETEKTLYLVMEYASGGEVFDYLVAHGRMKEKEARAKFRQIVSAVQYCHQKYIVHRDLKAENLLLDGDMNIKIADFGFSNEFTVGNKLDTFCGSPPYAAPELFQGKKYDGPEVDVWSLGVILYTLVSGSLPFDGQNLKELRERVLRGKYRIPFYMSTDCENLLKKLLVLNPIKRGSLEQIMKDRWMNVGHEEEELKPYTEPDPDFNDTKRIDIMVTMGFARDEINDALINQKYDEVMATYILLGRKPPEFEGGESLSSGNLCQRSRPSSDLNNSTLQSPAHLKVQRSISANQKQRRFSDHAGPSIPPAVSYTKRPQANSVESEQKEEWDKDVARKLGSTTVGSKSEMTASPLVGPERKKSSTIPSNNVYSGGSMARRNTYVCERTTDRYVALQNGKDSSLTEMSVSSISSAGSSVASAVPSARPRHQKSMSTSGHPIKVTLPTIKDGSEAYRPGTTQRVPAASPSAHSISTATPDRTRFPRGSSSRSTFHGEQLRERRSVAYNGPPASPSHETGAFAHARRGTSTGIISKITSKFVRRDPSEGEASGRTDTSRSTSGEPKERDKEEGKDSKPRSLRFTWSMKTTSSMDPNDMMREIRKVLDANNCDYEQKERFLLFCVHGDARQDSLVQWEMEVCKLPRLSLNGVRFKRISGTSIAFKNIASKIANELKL
Observed: enzyme activity
Mode: inhibitor
Tested at: 0.5 µM
Relative to: control
Endpoint: remaining activity
SMILES = O=C(NC(NC(=S)Nc1ccc(F)c([N+](=O)[O-])c1)C(Cl)(Cl)Cl)C(c1ccccc1)c1ccccc1 (stereo not drawn); value = 101%
SMILES = O=c1cc(-c2cccc3c2Sc2ccccc2S3)oc(N2CCOCC2)c1; value = 100%
SMILES = N#Cc1c(NC(=O)c2cccc3ccccc23)sc2c1CCCC2; value = 100%
SMILES = Nc1cccc(-c2cc3c(Oc4cccc(O)c4)ncnc3[nH]2)c1; value = 83%
SMILES = CN([C@@H](Cc1ccc(OS(=O)(=O)c2cccc3cnccc23)cc1)C(=O)N1CCN(c2ccccc2)CC1)S(=O)(=O)c1cccc2cnccc12; value = 96.7%
SMILES = Cc1cc2ncc(-c3ccccc3)nc2cc1C; value = 106%
SMILES = O=C1C(Cl)=C(N2C(=O)CCC2=O)C(=O)c2ccccc21; value = 99.3%
SMILES = CCN(CC)C(=O)c1ccc(Nc2nc(OCC3CCCCC3)c3[nH]cnc3n2)cc1; value = 82.7%
SMILES = COc1cc2c(cc1OC)-c1[nH]nc(Nc3cccc(F)c3)c1C2; value = 96.1%
SMILES = CCN(CC)CCNC(=O)c1c(C)[nH]c(/C=C2\C(=O)Nc3ccc(Cl)cc32)c1C; value = 18.1%
SMILES = c1ccc(-c2[nH]ncc2-c2ccnc3ccccc23)nc1; value = 79.2%
SMILES = COc1cc2ncnc(Nc3ccc(O)c(Br)c3)c2cc1OC; value = 94.8%
SMILES = CCN(CC)CCNC(=O)c1c(C)[nH]c(/C=C2\C(=O)Nc3ccc(F)cc32)c1C; value = 40.9%
SMILES = N#C/C(=C\c1ccc(O)c(O)c1)C(=O)NCc1ccccc1; value = 93.8%
SMILES = Cn1nc2c3c(cccc31)C(=O)c1ccccc1-2; value = 95.7%
SMILES = Cc1cn(-c2cc(NC(=O)c3ccc(C)c(Nc4nccc(-c5cccnc5)n4)c3)cc(C(F)(F)F)c2)cn1; value = 148%
SMILES = CN(C)C[C@H]1CCn2c(c(C3=C(c4cn(C)c5ccccc45)C(=O)NC3=O)c3ccccc32)C1; value = 92.8%
SMILES = C[C@@H]1CCN(C(=O)CC#N)C[C@@H]1N(C)c1ncnc2[nH]ccc12; value = 119%
SMILES = O=C(Nc1cccc(Nc2nccc(Nc3cccc(C(F)(F)F)c3)n2)c1)C1CC1; value = 104%
SMILES = O=C1c2ccccc2-c2n[nH]c3cccc1c23; value = 60.1%
SMILES = Cc1nc2cc3nc(-c4cccs4)cnc3cc2n1C; value = 102%
SMILES = c1ccc(-c2cnc(Nc3ccc(OCCN4CCCC4)cc3)s2)cc1; value = 90.1%
SMILES = Ic1cccc(CSc2nnc(-c3ccncc3)o2)c1; value = 111%
SMILES = CCOc1nc(NC(=O)Cc2cc(OC)ccc2OC)cc(N)c1C#N; value = 99%

Repeated from above (sample 1):
target = cAMP-dependent protein kinase catalytic subunit beta (PRKACB, Homo sapiens, UniProt P22694); value = 85%
target = Mast/stem cell growth factor receptor Kit (KIT, Homo sapiens, UniProt P10721, L576P); value = 76%
target = Proto-oncogene tyrosine-protein kinase receptor Ret (RET, Homo sapiens, UniProt P07949, V804L); value = 100%
target = Mast/stem cell growth factor receptor Kit (KIT, Homo sapiens, UniProt P10721, T670I/V559D); value = 87%
target = Serine/threonine-protein kinase PAK 3 (PAK3, Homo sapiens, UniProt O75914); value = 89%
target = Mast/stem cell growth factor receptor Kit, autoinhibited (KIT, Homo sapiens, UniProt P10721); value = 82%
target = 3-phosphoinositide-dependent protein kinase 1 (PDPK1, Homo sapiens, UniProt O15530); value = 92%
target = Uncharacterized serine/threonine-protein kinase SBK3 (SBK3, Homo sapiens, UniProt P0C264); value = 100%
